Measurements of several laboratories.
Each line is one published result; not all experiments were run side by side. Numbers after ± are the reported error.

CC[C@@]1(O)C(=O)OCc2c1cc1n(c2=O)Cc2cc3c(CN(C)C)c(O)ccc3nc2-1 — AUC(0-inf) (human patients, plasma; oral, 4 mg, day 15, geometric mean, together with: pazopanib 800 mg): 102 ng·h/mL
O=C(N/N=C/c1ccc([N+](=O)[O-])o1)c1ccc(O)cc1 — EC20 (mitochondrial swelling; BALB/cByJ female mouse liver mitochondria; 30 min, together with: succinate + rotenone; baseline: CaCl2 maximal swelling): > 400 µM
COc1ccc(C(=O)O)cc1OS(=O)(=O)O — mean concentration (human, fasted baseline, cerebrospinal fluid): 18.8 nM
Cc1c(Cl)cccc1Nc1ccccc1C(=O)O — EC20 (mitochondrial swelling; BALB/cByJ female mouse liver mitochondria; 30 min, together with: succinate + rotenone; baseline: CaCl2 maximal swelling): 335 µM
CNCc1ccc(-c2[nH]c3cc(F)cc4c3c2CCNC4=O)cc1 — half-life (human, plasma; oral, 300 mg, fed, high-fat meal, median): 20.5 h
CC(=O)N[C@@H](Cc1ccccc1)C(=O)N[C@H]1CCCNC(=O)[C@H](CCCNC(=N)N)NC(=O)[C@H](Cc2c[nH]c3ccccc23)NC(=O)[C@@H](CC2CCCCC2)NC(=O)[C@@H]2CCCN2C1=O — elimination half-life (C57BL/6J mice, spinal cord; intravenous, 1 mg/kg): 1.75 h
O=C(O)c1ccccc1O — EC20 (cytochrome c release, ELISA; BALB/cByJ female mouse liver mitochondria; 30 min; baseline: alamethicin maximal release): > 200 µM
CCN(CC)CCNC(=O)c1c(C)[nH]c(/C=C2\C(=O)Nc3ccc(F)cc32)c1C — median trough plasma concentration (human, plasma; oral, 20 mg/m2, day 21): 37.4 ng/mL
CC(C)C[C@H](NC(=O)CNC(=O)c1cc(Cl)ccc1Cl)B(O)O — C0 (human, plasma; intravenous bolus, 0.5 mg/m^2, day 15): 56.3 ng/mL
Cn1c(-c2ccc(C(N)=O)cc2F)nnc1C(C)(C)Oc1c(F)cc(Cl)cc1F — half-life range over subjects (young Japanese adults, plasma; oral, 10 mg single dose, day 1, high-dose multiple-dose study): 13.2 to 24.9 h
C[C@@H](Oc1ccc(S(C)(=O)=O)cc1C(=O)N1C[C@@H]2C[C@]2(c2cc(C(F)(F)F)on2)C1)C(F)(F)F — AUC(0-167 h) (healthy men, plasma; oral, 25 mg, single dose, geometric mean, together with: itraconazole multiple doses): 26.8 µM·h
Nc1c(Br)cc(Br)cc1CN[C@H]1CC[C@H](O)CC1 — EC20 (cytochrome c release, ELISA; BALB/cByJ female mouse liver mitochondria; 30 min; baseline: alamethicin maximal release): > 400 µM
CCOc1ccc2c(c1)C(C)=CC(C)(C)N2 — residue concentration (LC-MS/MS; laying hens, kidney; oral, 50 mg/kg feed, 56 days): 189.5 ± 1.3 ng/g
O=C(c1nc2n(n1)[C@H](c1ccccc1)C[C@@H]2F)C1CC1 — Vd/F (human, plasma; oral, 5 mg, single dose, fasted, healthy volunteers): 82.1 L
CNC(=O)c1ccc(-c2cnc3ncc(Cc4ccc5ncccc5c4)n3n2)cc1F — CL/F (healthy human subjects, plasma; oral, 400 mg, geometric mean, together with: rifampicin 600 mg/day): 103 L/h
CS(=O)(=O)n1cc2c(n1)CN([C@H]1CO[C@H](c3cc(F)ccc3F)[C@@H](N)C1)C2 — concentration at 168 h (healthy male human, plasma; oral, 50 mg once weekly, day 1, fasted, geometric mean): 26.5 nM
CC(C)[C@H](NC(=O)[C@@H]1CCCN1C(=O)[C@H](CCCNC(=N)N)NC(=O)[C@H](CS)NC(=O)[C@H](Cc1c[nH]c2ccccc12)NC(=O)[C@H](CCCNC(=N)N)NC(=O)[C@@H](Cc1ccccc1)NC(=O)[C@H](Cc1c[nH]cn1)NC(=O)[C@H](CCC(=O)O)NC(=O)[C@H](CS)NC(=O)[C@H](CS)NC(=O)[C@H](CCCCN)NC(=O)[C@@H]1CC(=O)N[C@@H](CCCNC(=N)N)C(=O)N[C@@H]([C@@H](C)O)C(=O)N[C@@H](CC(=O)O)C(=O)N[C@H](Cc2ccc(O)cc2)C(=O)N1)C(N)=O [technetium-99m labelled] — uptake ratio (C57 mouse, female, B16/F1 melanoma; intravenous, 2 h, together with: NDP-MSH 10 µg co-injected; baseline: tumour over muscle): 8.64
CC(C)(C)NC(=O)[C@H]1CC[C@H]2[C@@H]3CC[C@H]4NC(=O)C=C[C@]4(C)[C@H]3CC[C@]12C — absorption rate constant (albino rabbit, plasma; oral, 1 mg/kg): 0.757 h⁻¹
CNCc1cc(-c2ccccc2F)n(S(=O)(=O)c2cccnc2)c1 — apparent clearance ratio (rat Sprague-Dawley, plasma; oral, 10 mg/kg, together with: voriconazole 30 mg/kg/day for 14 days; baseline: control over voriconazole): 2.1 fold
CCN1C(=O)CNc2ncc(-c3ccc(-c4nc[nH]n4)nc3C)nc21 — AUC(0-24h) (human, plasma; oral, 40 mg once daily, multiple doses): 2650 ng·h/mL
[2H]C([2H])([2H])Oc1cc2c(cc1OC([2H])([2H])[2H])C1CC(=O)C(CC(C)C)CN1CC2 (stereo not drawn) — dose-normalized AUC(0-inf) (item: deuterated β-HTBZ; healthy human volunteers, plasma; oral, 12 mg single dose, standard meal): 5.6 ng·h/mL
COc1cc2ncnc(Nc3ccc(F)c(Cl)c3)c2cc1NC(=O)/C=C/CN1CCCCC1 — IC50 (poziotinib M1 formation, inhibitor; rat liver microsomes; 50 min, pH 7.4, 37 °C, together with: poziotinib 100 µM): 11.4 µM
C#Cc1cccc(Nc2ncnc3cc(OCCOC)c(OCCOC)cc23)c1 — time to therapeutic level (Sprague-Dawley rat female, serum; oral, 42 mg/kg weekly): ≤ 48 h
CCCC[C@@H]1NC(=O)[C@@H](NC(=O)[C@H](CCC(=O)O)NC(=O)CNC(=O)CN2CCN(CC(=O)O)CCN(CC(=O)O)CCN(CC(=O)O)CC2)CCCCNC(=O)C[C@@H](C(N)=O)NC(=O)[C@H](C(C)C)NC(=O)[C@@H]2CCCN2C(=O)[C@H](CCCNC(=N)N)NC(=O)CNC(=O)[C@H](Cc2c[nH]c3ccccc23)NC(=O)[C@H](CCCNC(=N)N)NC(=O)[C@@H](Cc2ccccc2)NC(=O)[C@H](Cc2c[nH]cn2)NC(=O)[C@H](CCC(=O)O)NC1=O [indium-111 labelled] — urinary excretion (C57 mice, B16F10 lung metastasis, urine; intravenous, 0.037 MBq, 2 h): 84.1 ± 2.32%
Cc1cccc(C)c1OCC(=O)N[C@@H](Cc1ccccc1)[C@@H](O)C[C@H](Cc1ccccc1)NC(=O)[C@H](C(C)C)N1CCCNC1=O — dissolution efficiency (USP paddle apparatus; Tween in phosphate buffer; concentration not given, 60 min, pH 6.8, 37 °C): 25%
C=CC(=O)Nc1cc(Nc2nccc(-c3cn(C)c4ccccc34)n2)c(OC)cc1N(C)CCN(C)C — apparent oral clearance (male Sprague-Dawley rat, plasma; oral, 10 mg/kg, PEG200 pretreatment only): 329 ± 97.3 mL/min/kg
Cc1cc(C)c2c(c1)[C@@H](N(Cc1cc(C(F)(F)F)cc(C(F)(F)F)c1)c1nnn(C)n1)CCCN2C[C@H]1CC[C@H](C(=O)O)CC1 — AUC(0-tau) at steady state (human, dyslipidemic patients, plasma; oral, 500 mg daily, monotherapy, geometric mean): 19700 ng·h/mL
CC(C)(S)[C@@H](N)C(=O)O — EC20 (cytochrome c release, ELISA; BALB/cByJ female mouse liver mitochondria; 30 min; baseline: alamethicin maximal release): > 400 µM
CN1CC[C@@H](NC(=O)Nc2ccc(C#N)cc2)C[C@@H]1c1nc2ccccc2[nH]1 — AUC(0-t), unbound (moderate hepatic impairment, plasma; oral, 100 mg single dose, fasted, geometric mean): 985 ng·h/mL
Cc1nc(C(=O)NCC(=O)O)c(O)c2ccc(Oc3ccccc3)cc12 — moderate adverse events (healthy subjects; oral, 100 mg; baseline: subjects): 11.1%
CC(C)(CC(=O)N1CCCC1)NCC(=O)N1C[C@@H](F)C[C@H]1C#N — AUC(0-tau) at steady state (Chinese type 2 diabetes patients, plasma; oral, 200 mg once daily, multiple doses): 3370 ng·h/mL
Ac-CGWWLALALALALALALALALALALWWA-NH2 (N-acetyl, C-amide) — folded core length (circular dichroism; water/TFE, extrapolated to water): 11 residues
CO[C@H]1/C=C/O[C@@]2(C)Oc3c(C)c(O)c4c(O)c(c(/C=N/N5CCN(C)CC5)c(O)c4c3C2=O)NC(=O)/C(C)=C\C=C\[C@H](C)[C@H](O)[C@@H](C)[C@@H](O)[C@@H](C)[C@H](OC(C)=O)[C@@H]1C — EC20 (cytochrome c release, ELISA; BALB/cByJ female mouse liver mitochondria; 30 min; baseline: alamethicin maximal release): > 200 µM
Cn1c(=O)c2[nH]cnc2n(C)c1=O — mean concentration (human, fasted baseline, cerebrospinal fluid): 65.2 ± 63 nM
CC[C@H](C)[C@H](NC(=O)[C@H](CCCCN)NC(=O)[C@@H](NC(=O)[C@H](CC(N)=O)NC(=O)[C@H](C)NC(=O)[C@H](CCCNC(=N)N)NC(=O)[C@H](CCCNC(=N)N)NC(=O)[C@H](CC(N)=O)NC(=O)[C@H](CCCNC(=N)N)NC(=O)[C@@H](NC(=O)[C@H](CCCNC(=N)N)NC(=O)[C@@H](NC(=O)[C@H](CO)NC(=O)[C@@H](NC(=O)[C@H](CS)NC(=O)[C@H](CCCCN)NC(=O)[C@@H](N)CCCNC(=N)N)[C@@H](C)CC)C(C)C)[C@@H](C)CC)[C@@H](C)CC)C(=O)N[C@@H](CS)C(=O)N[C@@H](CC(N)=O)C(=O)O — single disulfide form (LC-MS; PBS; 0.1 mg/mL): 98%
O=C([O-])CN1CCN(CC(=O)[O-])CCN(CC(=O)[O-])CCN(CC(=O)[O-])CC1.[67Ga+3] — intact radiolabelled complex (RP-TLC; murine plasma; 3 h, 37 °C, 5% CO2): 97.5 ± 0.5%
CC/C(=C(\c1ccccc1)c1ccc(OCCN(C)C)cc1)c1ccccc1 — Ctrough (female breast cancer patients, plasma; dose not given, median of sample A patients, together with: weak CYP2D6-inhibiting SSRI escitalopram or citalopram): 290 nM
C=CC1=C(C(=O)O)N2C(=O)[C@@H](NC(=O)/C(=N\OCC(=O)O)c3csc(N)n3)[C@H]2SC1 — EC20 (mitochondrial swelling; BALB/cByJ female mouse liver mitochondria; 30 min, together with: succinate + rotenone; baseline: CaCl2 maximal swelling): > 400 µM
CC(=O)CCc1ccc(O)cc1 — AUC(0-12 h) (male C57BL/6J mice, low-fat diet, brain; oral, 200 mg/kg): 19.4 ± 2.42 nmol·min/g
Cc1cc(Nc2cc(N3CCN(C)CC3)nc(Sc3ccc(NC(=O)C4CC4)cc3)n2)[nH]n1 — end-of-infusion concentration (patients, plasma; continuous intravenous infusion, 8 to 96 mg/m2/h, 24 h, mean across doses): 0.274 to 7.63 µM
CNC(C)C1CCC(N)C(OC2C(N)CC(N)C(OC3OCC(C)(O)C(NC)C3O)C2O)O1 (stereo not drawn) — EC20 (mitochondrial swelling; BALB/cByJ female mouse liver mitochondria; 30 min, together with: succinate + rotenone; baseline: CaCl2 maximal swelling): > 800 µM
CCCCCCCCCCCCCCC[C@H](O)[C@@H](N)CO — AUC (human, phase I, plasma; intravenous, 60 mg/m^2, day 1, monotherapy): 11.2 µM·h

Excerpt of the above:
Cc1c(Cl)cccc1Nc1ccccc1C(=O)O — EC20 (mitochondrial swelling; BALB/cByJ female mouse liver mitochondria; 30 min, together with: succinate + rotenone; baseline: CaCl2 maximal swelling): 335 µM
CNCc1ccc(-c2[nH]c3cc(F)cc4c3c2CCNC4=O)cc1 — half-life (human, plasma; oral, 300 mg, fed, high-fat meal, median): 20.5 h
CC(=O)N[C@@H](Cc1ccccc1)C(=O)N[C@H]1CCCNC(=O)[C@H](CCCNC(=N)N)NC(=O)[C@H](Cc2c[nH]c3ccccc23)NC(=O)[C@@H](CC2CCCCC2)NC(=O)[C@@H]2CCCN2C1=O — elimination half-life (C57BL/6J mice, spinal cord; intravenous, 1 mg/kg): 1.75 h
O=C(O)c1ccccc1O — EC20 (cytochrome c release, ELISA; BALB/cByJ female mouse liver mitochondria; 30 min; baseline: alamethicin maximal release): > 200 µM
